Experimental data pooled from the literature.
Protocols differ between the studies behind these lines.
EGFR: Epidermal growth factor receptor (EGFR, Homo sapiens, UniProt P00533)
EGFR L858R: Epidermal growth factor receptor (EGFR, Homo sapiens, UniProt P00533, L858R)
EGFR L858R/T790M: Epidermal growth factor receptor (EGFR, Homo sapiens, UniProt P00533, L858R/T790M)
Nuclear receptor subfamily 2 group C member 2 ligand-binding domain: Nuclear receptor subfamily 2 group C member 2, ligand-binding domain (Homo sapiens, UniProt P49116)
Sequence of UniProt P49116 (whole entry, looked up): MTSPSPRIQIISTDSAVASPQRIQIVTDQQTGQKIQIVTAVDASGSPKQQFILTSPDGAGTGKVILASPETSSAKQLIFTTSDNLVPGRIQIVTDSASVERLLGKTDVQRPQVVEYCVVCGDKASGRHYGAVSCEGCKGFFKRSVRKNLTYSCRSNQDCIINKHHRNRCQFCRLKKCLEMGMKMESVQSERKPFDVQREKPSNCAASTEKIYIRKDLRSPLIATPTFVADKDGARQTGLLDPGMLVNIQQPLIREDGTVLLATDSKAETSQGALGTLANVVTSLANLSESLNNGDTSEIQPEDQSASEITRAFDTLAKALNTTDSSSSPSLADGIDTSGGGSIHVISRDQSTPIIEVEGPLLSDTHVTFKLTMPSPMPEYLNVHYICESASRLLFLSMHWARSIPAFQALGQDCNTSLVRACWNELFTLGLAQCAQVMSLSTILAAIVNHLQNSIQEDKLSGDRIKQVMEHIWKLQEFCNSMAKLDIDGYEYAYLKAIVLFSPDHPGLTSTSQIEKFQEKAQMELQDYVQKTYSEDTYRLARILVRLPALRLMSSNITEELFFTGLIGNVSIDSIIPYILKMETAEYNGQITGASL
EGFR T790M: Epidermal growth factor receptor (EGFR, Homo sapiens, UniProt P00533, T790M)
Sequence of UniProt Q04206 (whole entry, looked up): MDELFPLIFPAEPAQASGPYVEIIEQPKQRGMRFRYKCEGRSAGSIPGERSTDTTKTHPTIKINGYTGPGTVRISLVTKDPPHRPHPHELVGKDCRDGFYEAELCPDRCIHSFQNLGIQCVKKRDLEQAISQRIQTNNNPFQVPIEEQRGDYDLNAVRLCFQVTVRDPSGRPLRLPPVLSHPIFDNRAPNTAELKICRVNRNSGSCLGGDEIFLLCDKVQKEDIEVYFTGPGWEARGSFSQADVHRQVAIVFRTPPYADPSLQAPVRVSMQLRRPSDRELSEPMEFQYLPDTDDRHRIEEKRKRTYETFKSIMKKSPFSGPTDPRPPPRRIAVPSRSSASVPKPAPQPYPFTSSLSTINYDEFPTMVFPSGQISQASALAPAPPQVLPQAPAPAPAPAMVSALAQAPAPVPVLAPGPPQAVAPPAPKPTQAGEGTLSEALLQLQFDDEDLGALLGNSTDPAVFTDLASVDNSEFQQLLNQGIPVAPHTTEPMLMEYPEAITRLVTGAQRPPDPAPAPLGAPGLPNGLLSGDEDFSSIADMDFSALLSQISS
Sequence of UniProt P61981 (whole entry, looked up): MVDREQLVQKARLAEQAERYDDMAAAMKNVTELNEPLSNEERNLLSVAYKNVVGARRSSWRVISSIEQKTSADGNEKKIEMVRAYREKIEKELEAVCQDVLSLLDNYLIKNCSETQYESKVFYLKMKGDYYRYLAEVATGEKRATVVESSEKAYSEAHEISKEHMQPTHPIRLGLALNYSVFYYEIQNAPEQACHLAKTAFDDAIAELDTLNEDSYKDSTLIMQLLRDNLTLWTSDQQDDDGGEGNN

[2H]c1cc(C)c(NC(=O)c2cnc(Nc3cc(N4CCCCC4)nc(C)n3)s2)c(Cl)c1 — inhibition (EGFR; 0.01 µM): < 30%
COc1ccc(-c2nn(-c3ccc(S(C)(=O)=O)cc3)cc2C=N/N=c2\[nH]c(-c3ccc([N+](=O)[O-])cc3)cs2)cc1 — inhibition (EGFR L858R; kinase activity, inhibitor; 1 µM): 80.3%
C#Cc1cc(-c2cc(Nc3nc(N[C@@H](C)c4ccc(F)cn4)ncc3Cl)n[nH]2)ccc1C=O — inhibition (EGFR; enzyme activity, inhibitor; 0.2 µM): 10.4%
COc1ccc(-c2nn(-c3ccc(S(C)(=O)=O)cc3)cc2/C=N/N=c2\[nH]c(-c3ccc(Br)cc3)cs2)cc1 — inhibition (EGFR; kinase activity, inhibitor; 100 µM): 93.4%
COc1cc(N2CCN(C)CC2)ccc1Nc1nc(N)n(C(=O)NCc2ccccc2S(=O)(=O)C(C)C)n1 — remaining activity (EGFR L858R/T790M; enzyme activity; 10 µM; relative to: control): 22%
CC(C(=O)Nc1cccc(/N=C/c2c(O)ccc3ccccc23)c1)c1ccccc1 (stereo not shown) — viability (OCI-Ly1; 1 µM, 120 h): 146%
CC1CCc2c(N3CCC(O)CC3)c(F)cc3c(=O)c(C(=O)O)cn1c23 (stereo not shown) — Kd (Nuclear receptor subfamily 2 group C member 2 ligand-binding domain; SPR imaging): 0.0353 nM
COc1ccc(CNC(=O)c2ccc(C=O)cc2)cc1 — EC50 (YWHAG/RELA, phospho-Ser45 p65 peptide (Homo sapiens, UniProt P61981+Q04206); ternary complex formation, stabilizer, fluorescence anisotropy): > 1000 µM
Nc1nccc2c1ncn2[C@@H]1C=C(CO)[C@@H](O)[C@H]1O — viability (OCI-Ly1; 0.5 µM, 120 h): 8.3%
CCCOc1ccc(OC)c(F)c1C(=O)c1ccc(C(=O)N[C@@H]2CNC[C@H]2NC(=O)c2ccc3[nH]ncc3c2)cc1 — remaining activity (EGFR; enzyme activity; 10 µM): 105%
CC(C)Cc1ccc(-c2nn(-c3ccc(S(C)(=O)=O)cc3)cc2/C=N/N=c2\[nH]c(-c3ccc([N+](=O)[O-])cc3)cs2)cc1 — inhibition (EGFR; kinase activity, inhibitor; 0.01 µM): 20.8%
C[C@@H](c1ccc(-n2cnc3c(N)ncnc32)cc1)N1CCc2nn(C)c(Cc3ccccc3)c2C1=O — remaining binding (EGFR T790M; KINOMEscan; 0.1 µM; relative to: DMSO control): 90%
COc1cc(N2CCN(C)CC2)ccc1Nc1nc(N)n(C(=O)NCc2c(Cl)cccc2Cl)n1 — remaining activity (EGFR L858R/T790M; enzyme activity; 10 µM; relative to: control): 11%
COc1cc(C(=O)NC2CCCNC2)cc(OC)c1OC (stereo not shown) — Kd (Nuclear receptor subfamily 2 group C member 2 ligand-binding domain; SPR imaging): 0.0131 nM
CCOc1cc(N2CCN(C)CC2)ccc1Nc1nc(N)n(C(=O)NCc2ccccc2S(=O)(=O)C(C)C)n1 — remaining activity (EGFR L858R; enzyme activity; 10 µM; relative to: control): 10%
CC(C)C[C@H](NC(=O)[C@H](CO)NC(=O)[C@H](CO)NC(=O)CNC(=O)[C@@H]1CCCN1C(=O)[C@H](Cc1ccc(O)cc1)NC(=O)[C@H](CC(C)C)NC(=O)[C@H](CO)NC(=O)[C@H](CS)NC(=O)[C@H](CC(C)C)NC(=O)[C@@H](N)CC(C)C)C(=O)O — kon (Epidermal growth factor receptor, extracellular domain (EGFR, Homo sapiens, UniProt P00533); binding, second site, surface plasmon resonance; immobilised soluble EGFR; model, binding, one to two): 582 M⁻¹ s⁻¹
CC(C)Oc1cc(N2CCN(C)CC2)ccc1Nc1nc(N)n(C(=O)NCc2ccccc2S(=O)(=O)C(C)C)n1 — remaining activity (EGFR (Homo sapiens, UniProt P00533, L861Q); enzyme activity; 10 µM; relative to: control): 14%
COc1cc2ncnc(Nc3ccc(F)c(Cl)c3)c2cc1OCCCN1CCN(C(=O)CCCCCCCCCCNC(=O)C[C@H](NC(=O)[C@@H]2C[C@@H](O)CN2C(=O)[C@@H](c2cc(C)no2)C(C)C)c2ccc(-c3scnc3C)cc2)CC1 — time to significant reduction (EGFR (Homo sapiens, UniProt P00533, del746-750); protein degradation, degrader, western blot; HCC827; 100 nM): ≤ 4 h
C=CC(=O)N1CCC(C(=O)NCC(=O)N2CCN(c3nc(-c4cnc(N)nc4C(F)F)nc(N4CCOCC4)n3)CC2)CC1 — remaining binding (EGFR (Homo sapiens, UniProt P00533, del752-759); KINOMEscan; 1 µM): 92%
C#Cc1cccc(Oc2ccc(-c3nn([C@@H]4CCCN(C(=O)C=C)C4)c4ncnc(N)c34)cc2)c1 — SILAC ratio (EGFR; ABPP-SILAC; 1 µM, 1 h; relative to: DMSO): 11
CC(C)C[C@H](NC(=O)[C@H](CO)NC(=O)[C@H](CO)NC(=O)CNC(=O)[C@@H]1CCCN1C(=O)[C@H](Cc1ccc(O)cc1)NC(=O)[C@H](CC(C)C)NC(=O)[C@H](CO)NC(=O)[C@H](CS)NC(=O)[C@H](CC(C)C)NC(=O)[C@H](CC(C)C)NC(=O)CCCCCNC(=S)Nc1ccc2c(c1)C(=O)OC21c2ccc(O)cc2Oc2cc(O)ccc21)C(=O)O — kon (EGFR; binding, second site, LigandTracer cell binding; A-431; FITC-labelled, model, binding, one to two): 1360 M⁻¹ s⁻¹
COc1cc(N2CCN(C)CC2)ccc1Nc1nc(N)n(C(=S)NCc2c(Cl)cccc2Cl)n1 — remaining activity (EGFR; enzyme activity; 10 µM; relative to: control): 3.8%
O=C(NC1CCC1)c1ccc2nc(-c3cccc(NS(=O)(=O)NCCN4CCCCC4)c3)cn2c1 — remaining activity (EGFR; enzyme activity; 10 µM): 100%
COc1cc(-c2cncc3c2CN(C)Cc2cc(N4CCNCC4)ccc2-3)cc(OC)c1OC — remaining activity (EGFR L858R/T790M; kinase activity; 1 µM, together with: ATP 10 µM; relative to: DMSO control): 106%
C=CC(=O)N1CCC(COCC(=O)N2CCN(c3nc(-c4cnc(N)nc4C(F)F)nc(N4CCOC[C@@H]4C)n3)CC2)CC1 — remaining binding (EGFR T790M; KINOMEscan; 1 µM; relative to: DMSO control): 86%

Some of these lines once more:
COc1cc(-c2cncc3c2CN(C)Cc2cc(N4CCNCC4)ccc2-3)cc(OC)c1OC — remaining activity (EGFR L858R/T790M; kinase activity; 1 µM, together with: ATP 10 µM; relative to: DMSO control): 106%
C=CC(=O)N1CCC(COCC(=O)N2CCN(c3nc(-c4cnc(N)nc4C(F)F)nc(N4CCOC[C@@H]4C)n3)CC2)CC1 — remaining binding (EGFR T790M; KINOMEscan; 1 µM; relative to: DMSO control): 86%
